Measurements from different studies.
± marks the error that the study gave.
CALCR: Calcitonin receptor (CALCR, Homo sapiens, UniProt P30988)
YWHAG/RELA phospho-Ser45 p65 peptide: YWHAG/RELA, phospho-Ser45 p65 peptide (Homo sapiens, UniProt P61981+Q04206)
VHL/BRD9: VHL/BRD9 (Homo sapiens, UniProt P40337+Q9H8M2)
VHL/BRD9 with Elongin B/C: VHL/BRD9, with Elongin B/C (Homo sapiens, UniProt P40337+Q9H8M2)

NCCC(=O)O  Kd (SLC6A6 (Homo sapiens, UniProt P31641, E406A)): no binding
CC[C@H](C)[C@@H](C(=O)N[C@@H](CC(C)C)C(=O)N[C@@H](CO)C(=O)N[C@@H](CO)C(=O)N[C@H](C(=O)N[C@@H](CCC(=O)O)C(=O)N[C@H](C(=O)NCC(=O)N[C@@H](CO)C(=O)N[C@@H](CC(N)=O)C(=O)N[C@H](C(=O)N1C[C@H](O)C[C@H]1C(N)=O)[C@@H](C)O)C(C)C)[C@@H](C)O)N(C)C(=O)[C@H](C)NC(=O)CN(C)C(=O)[C@H](Cc1ccccc1)NC(=O)[C@H](CO)NC(=O)[C@H](CO)NC(=O)[C@H](CCCNC(=N)N)NC(=O)[C@H](CCC(N)=O)NC(=O)[C@H](CC(C)C)NC(=O)[C@H](Cc1ccccc1)NC(=O)[C@H](Cc1c[nH]cn1)NC(=O)[C@H](C)NC(=O)[C@H](CC(C)C)NC(=O)[C@H](CCCNC(=N)N)NC(=O)[C@H](CCC(=O)O)NC(=O)[C@@H](NC(=O)[C@H](C)NC(=O)[C@@H]1CNC(=O)C[C@H](NC(=O)[C@H](CCCNC(=N)N)NC(=O)CC[C@H](NC(=O)CCCCCCCCCCCCCCCCCCC(=O)O)C(=O)O)C(=O)NCC(=O)N[C@@H]([C@@H](C)O)C(=O)N[C@@H](C)C(=O)N[C@@H]([C@@H](C)O)C(=O)N1)[C@@H](C)O  EC50 (CALCR; cAMP, agonist): 1.07 µM
Cc1ncc2[nH]c(=O)n(-c3cnc(Oc4cccc5c4C(C)(C)CO5)c(Cl)c3)c2n1  EC50 (KCNC1 (Homo sapiens, UniProt P48547); ion current, activator, automated patch clamp; HEK293 expressing Kv3.1; holding -70 mV, test -15 mV): 0.078 µM
CC[C@H](C)[C@@H](C(=O)N[C@@H](CC(C)C)C(=O)N[C@@H](CO)C(=O)N[C@@H](CO)C(=O)N[C@H](C(=O)N[C@@H](CCC(=O)O)C(=O)N[C@H](C(=O)NCC(=O)N[C@@H](CO)C(=O)N[C@@H](CC(N)=O)C(=O)N[C@H](C(=O)N1CCC[C@H]1C(N)=O)[C@@H](C)O)C(C)C)[C@@H](C)O)N(C)C(=O)[C@H](C)NC(=O)CN(C)C(=O)[C@H](Cc1ccccc1)NC(=O)[C@H](CO)NC(=O)[C@H](CO)NC(=O)[C@H](CCCNC(=N)N)NC(=O)[C@H](Cc1c[nH]cn1)NC(=O)[C@H](CC(C)C)NC(=O)[C@H](Cc1ccccc1)NC(=O)[C@H](Cc1c[nH]cn1)NC(=O)[C@H](C)NC(=O)[C@H](CC(C)C)NC(=O)[C@H](CCCNC(=N)N)NC(=O)[C@H](CCC(=O)O)NC(=O)[C@@H](NC(=O)[C@H](C)NC(=O)[C@@H]1CSSC[C@H](NC(=O)[C@H](CCCNC(=N)N)NC(=O)CC[C@H](NC(=O)CCCCCCCCCCCCCCCCCCC(=O)O)C(=O)O)C(=O)NCC(=O)N[C@@H]([C@@H](C)O)C(=O)N[C@@H](C)C(=O)N[C@@H]([C@@H](C)O)C(=O)N1)[C@@H](C)O  EC50 (CALCR; cAMP, agonist): 0.000174 µM
Cc1ncsc1-c1ccc(CNC(=O)C2CC(O)CN2C(=O)C(N)C(C)(C)C)cc1 (stereo not shown)  EC50 (Aurora kinase B (AURKB, Homo sapiens, UniProt Q96GD4); NanoBRET target engagement; HEK293 expressing NanoLuc fusion; 2 h): > 30 µM
NC1=NC(=O)[C@H](CC(=O)Nc2ccc(SC(F)F)cc2)S1  EC50 (Piezo1 (Mus musculus, UniProt E2JF22); agonist): 12.9 ± 4.73 µM
CC(C)S(=O)(=O)Oc1cc(C=O)ccc1[N+](=O)[O-]  EC50 (YWHAG/RELA phospho-Ser45 p65 peptide; ternary complex formation, stabilizer, fluorescence anisotropy): > 1000 µM
C#CCN1CCN(c2nc(N3CCN(c4ccc(Cc5cc(CNC(=O)[C@@H]6C[C@@H](O)CN6C(=O)[C@@H](NC(=O)C6(F)CC6)C(C)(C)C)c(O)cc5-c5scnc5C)cc4)CC3)nc(N3CCN(C(=O)C4CC4)C3)n2)CC1=O  EC50 (VHL/BRD9; ternary complex formation, NanoBiT; HEK293T; 2 h, with: MLN4924 2 µM): 0.158 µM
O=Cc1ccc([N+](=O)[O-])c(OS(=O)(=O)c2cccc(Cl)c2)c1  EC50 (YWHAG/RELA phospho-Ser45 p65 peptide; ternary complex formation, stabilizer, fluorescence anisotropy): > 1000 µM
Cc1ncsc1-c1ccc(CNC(=O)[C@@H]2C[C@@H](O)CN2C(=O)[C@@H](NC(=O)C2(F)CC2)C(C)(C)C)c(OCCC2CCN(c3nc(N(C)CCNC(=O)C(C)C)nc(N4CCn5nnc(CO)c5C4)n3)CC2)c1  EC50 (VHL/BRD9; ternary complex formation, NanoBiT; HEK293T; 2 h, with: MLN4924 2 µM): 0.759 µM
COc1cc(C2C(NC(=O)c3ccc(NC(=O)OC(C)(C)C)cc3)(C(=O)O)C(c3ccc(OC(=O)c4cccs4)c(OC)c3)C2(NC(=O)c2ccc(NC(=O)OC(C)(C)C)cc2)C(=O)O)ccc1OC(=O)c1cccs1 (stereo not shown)  EC50 (GLP1R (Homo sapiens, UniProt P43220, L384A); cAMP, agonist): 0.0339 µM
CC(C)(C)OC(=O)N1CCN(S(=O)(=O)c2ccc(-c3ccc4ncnc(Nc5ccc(OCc6cccc(F)c6)c(Cl)c5)c4c3)cc2)CC1  EC50 (Leishmania major; intracellular amastigote growth, luciferase; RAW264.7 macrophages): > 15 µM
COC1CN([C@H]2CC[C@H]([C@@]3(C)Oc4c(Cl)cc(C(=O)NCc5c(SC)cc(C)[nH]c5=O)c(C)c4O3)CC2)C1  log2 fold change (RNA-seq, measured: CAMSAP3; human, whole blood; dose not given, 24 h; relative to: pretreatment baseline): 3.92
CC(=O)NCCN(c1nc(N2CC(Oc3ccccc3)C2)nc(N2CC3C(CCOc4cc(-c5scnc5C)ccc4CNC(=O)[C@@H]4C[C@@H](O)CN4C(=O)[C@@H](NC(=O)C4(F)CC4)C(C)(C)C)C3C2)n1)C(C)C (stereo partly shown)  EC50 (VHL/BRD9 with Elongin B/C; ternary complex formation, AlphaScreen; with: 50 nM His-BRD9 and 20 nM biotin-VCB): 0.68 µM
Cc1nn(-c2cccc(N)c2)c(=O)c2cnc(Nc3ccc(N4CCNCC4)cc3)nc12  IC50 (PRKCG (Homo sapiens, UniProt P05129); enzyme activity, inhibitor): 4.01 µM
Cn1c(=O)n(C2CCC(=O)NC2=O)c2ccc(C3CCN(CC(=O)Nc4cccc(CS(=O)(=O)N5CC[C@H](Nc6cccc(-c7sc(C(=O)O)c(OCC(=O)O)c7Cl)c6)CC5(C)C)c4)CC3)cc21 (stereo partly shown)  EC50 (PPP1CA (Homo sapiens, UniProt P62136); phosphatase activity; with: DiFMUP substrate): > 10 µM
CC[C@H](C)[C@@H](C(=O)N[C@@H](CC(C)C)C(=O)N[C@@H](CO)C(=O)N[C@@H](CO)C(=O)N[C@H](C(=O)N[C@@H](CCC(=O)O)C(=O)N[C@H](C(=O)NCC(=O)N[C@@H](CO)C(=O)N[C@@H](CC(N)=O)C(=O)N[C@H](C(=O)N1C[C@H](O)C[C@H]1C(N)=O)[C@@H](C)O)C(C)C)[C@@H](C)O)N(C)C(=O)[C@H](C)NC(=O)CN(C)C(=O)[C@H](Cc1ccccc1)NC(=O)[C@H](CO)NC(=O)[C@H](CO)NC(=O)[C@H](CCCNC(=N)N)NC(=O)[C@H](CCC(N)=O)NC(=O)[C@H](CC(C)C)NC(=O)[C@H](Cc1ccccc1)NC(=O)[C@H](Cc1c[nH]cn1)NC(=O)[C@H](C)NC(=O)[C@H](CC(C)C)NC(=O)[C@H](CCCNC(=N)N)NC(=O)[C@H](CCC(=O)O)NC(=O)[C@@H](NC(=O)[C@H](C)NC(=O)[C@@H]1CSSC[C@H](NC(=O)[C@H](CCCNC(=N)N)NC(=O)CC[C@H](NC(=O)CCCCCCCCCCCCCCCCCCC(=O)O)C(=O)O)C(=O)N[C@@H](CCC(N)=O)C(=O)N[C@@H]([C@@H](C)O)C(=O)N[C@@H](C)C(=O)N[C@@H]([C@@H](C)O)C(=O)N1)[C@@H](C)O  EC50 (CALCR; cAMP, agonist): 0.0001 µM
CC[C@H]1CN([C@@H](CC)c2ccc(C(F)(F)F)cc2)[C@H](CC)CN1c1nc(=O)n(C)c2ccc(C#N)nc12  EC50 (DGKZ (Homo sapiens, UniProt Q13574); membrane translocation, high-content imaging; Jurkat, DGKζ-YFP; 1 h): 0.008 µM
CC[C@H](C)[C@@H](C(=O)N[C@@H](CC(C)C)C(=O)N[C@@H](CO)C(=O)N[C@@H](CO)C(=O)N[C@H](C(=O)N[C@@H](CC(N)=O)C(=O)N[C@H](C(=O)NCC(=O)N[C@@H](CO)C(=O)N[C@@H](CC(N)=O)C(=O)N[C@H](C(=O)N1CC[C@H]1C(N)=O)[C@@H](C)O)C(C)C)[C@@H](C)O)N(C)C(=O)[C@H](C)NC(=O)CN(C)C(=O)[C@H](Cc1ccccc1)NC(=O)[C@H](CC(N)=O)NC(=O)[C@H](CC(N)=O)NC(=O)[C@H](CO)NC(=O)[C@H](CO)NC(=O)[C@H](CCCNC(=N)N)NC(=O)[C@H](Cc1c[nH]cn1)NC(=O)[C@H](CC(C)C)NC(=O)[C@H](Cc1ccccc1)NC(=O)[C@H](CCC(=O)O)NC(=O)[C@H](C)NC(=O)[C@H](CC(C)C)NC(=O)[C@H](CCCNC(=N)N)NC(=O)[C@H](CCC(N)=O)NC(=O)[C@@H](NC(=O)[C@H](C)NC(=O)[C@@H]1CSSC[C@H](NC(=O)[C@H](CCCNC(=N)N)NC(=O)CC[C@H](NC(=O)CCCCCCCCCCCCCCCCCCC(=O)O)C(=O)O)C(=O)N[C@@H](CC(N)=O)C(=O)N[C@@H]([C@@H](C)O)C(=O)N[C@@H](C)C(=O)N[C@@H]([C@@H](C)O)C(=O)N1)[C@@H](C)O  EC50 (CALCR; cAMP, agonist): 0.000288 µM
CC(=O)NCC1CCCCN1c1nc(NCCn2nnc(C)n2)nc(N2CC3C(CCOc4cc(-c5scnc5C)ccc4CNC(=O)[C@@H]4C[C@@H](O)CN4C(=O)[C@@H](NC(=O)C4(F)CC4)C(C)(C)C)C3C2)n1 (stereo partly shown)  EC50 (VHL/BRD9 with Elongin B/C; ternary complex formation, AlphaScreen; with: 50 nM His-BRD9 and 20 nM biotin-VCB): 0.08 µM
O=S(=O)(c1cccc(-c2ccc3ncnc(Nc4ccc(OCc5cccc(F)c5)c(Cl)c4)c3c2)c1)N1CCCCC1  EC50 (Leishmania major; intracellular amastigote growth, luciferase; RAW264.7 macrophages): > 15 µM
CC[C@H](C)[C@@H](C(=O)N[C@@H](CC(C)C)C(=O)N[C@@H](CO)C(=O)N[C@@H](CO)C(=O)N[C@H](C(=O)N[C@@H](CC(N)=O)C(=O)N[C@H](C(=O)NCC(=O)N[C@@H](CO)C(=O)N[C@@H](CC(N)=O)C(=O)N[C@H](C(=O)N1C[C@H](O)C[C@H]1C(N)=O)[C@@H](C)O)C(C)C)[C@@H](C)O)N(C)C(=O)[C@H](C)NC(=O)CN(C)C(=O)[C@H](Cc1ccccc1)NC(=O)[C@H](CC(N)=O)NC(=O)[C@H](CC(N)=O)NC(=O)[C@H](CO)NC(=O)[C@H](CO)NC(=O)[C@H](CCCNC(=N)N)NC(=O)[C@H](Cc1c[nH]cn1)NC(=O)[C@H](CC(C)C)NC(=O)[C@H](Cc1ccccc1)NC(=O)[C@H](CCC(=O)O)NC(=O)[C@H](C)NC(=O)[C@H](CC(C)C)NC(=O)[C@H](CCCNC(=N)N)NC(=O)[C@H](CCC(N)=O)NC(=O)[C@@H](NC(=O)[C@H](C)NC(=O)[C@@H]1CSSC[C@H](NC(=O)[C@H](CCCNC(=N)N)NC(=O)CC[C@H](NC(=O)CCCCCCCCCCCCCCCCCCC(=O)O)C(=O)O)C(=O)N[C@@H](CC(N)=O)C(=O)N[C@@H]([C@@H](C)O)C(=O)N[C@@H](C)C(=O)N[C@@H]([C@@H](C)O)C(=O)N1)[C@@H](C)O  EC50 (CALCR; cAMP, agonist): 8.13e-05 µM

Some of these lines once more:
CC[C@H]1CN([C@@H](CC)c2ccc(C(F)(F)F)cc2)[C@H](CC)CN1c1nc(=O)n(C)c2ccc(C#N)nc12  EC50 (DGKZ (Homo sapiens, UniProt Q13574); membrane translocation, high-content imaging; Jurkat, DGKζ-YFP; 1 h): 0.008 µM
O=Cc1ccc([N+](=O)[O-])c(OS(=O)(=O)c2cccc(Cl)c2)c1  EC50 (YWHAG/RELA phospho-Ser45 p65 peptide; ternary complex formation, stabilizer, fluorescence anisotropy): > 1000 µM
COc1cc(C2C(NC(=O)c3ccc(NC(=O)OC(C)(C)C)cc3)(C(=O)O)C(c3ccc(OC(=O)c4cccs4)c(OC)c3)C2(NC(=O)c2ccc(NC(=O)OC(C)(C)C)cc2)C(=O)O)ccc1OC(=O)c1cccs1 (stereo not shown)  EC50 (GLP1R (Homo sapiens, UniProt P43220, L384A); cAMP, agonist): 0.0339 µM
C#CCN1CCN(c2nc(N3CCN(c4ccc(Cc5cc(CNC(=O)[C@@H]6C[C@@H](O)CN6C(=O)[C@@H](NC(=O)C6(F)CC6)C(C)(C)C)c(O)cc5-c5scnc5C)cc4)CC3)nc(N3CCN(C(=O)C4CC4)C3)n2)CC1=O  EC50 (VHL/BRD9; ternary complex formation, NanoBiT; HEK293T; 2 h, with: MLN4924 2 µM): 0.158 µM
